Experimental data from different studies.
Compare with care: the assays were run in different laboratories. Several values in a cell are separate wells, animals, samples, runs or records. ± gives the spread as reported.

Structure (SMILES)	assay	test system	setting	how to read	quantity	value
COc1cccc2c1CCCC2CCCN1CCN(C2CCCCC2)CC1 (stereo not drawn)		CD-1 mouse, male, plasma	intraperitoneal, 10 mg/kg		AUC(0-inf)	495 ng·h/mL
CC(C)[C@@H]1CC[C@@H](C)C[C@@H]1O	acute oral toxicity OECD	Swiss albino mice, serum	oral, 300 mg/kg		alanine aminotransferase	55.7 ± 3.24 U/L
CCCCCCCCCCCCCCCC(=O)N[C@@H](CCC(=O)NCCCC[C@H](NC(=O)[C@H](CC(=O)O)NC(=O)[C@H](CO)NC(=O)[C@@H](NC(=O)[C@H](Cc1ccccc1)NC(=O)[C@@H](NC(=O)CNC(=O)[C@H](CCC(N)=O)NC(=O)[C@H](CO)NC(=O)[C@@H](N)Cc1c[nH]cn1)[C@@H](C)O)[C@@H](C)O)C(=O)N[C@@H](CO)C(=O)N[C@@H](CCC(=O)O)C(=O)N[C@@H](Cc1ccc(O)cc1)C(=O)N[C@@H](CC(C)C)C(=O)N[C@@H](CC(=O)O)C(=O)N[C@@H](CO)C(=O)N[C@@H](CCC(=O)O)C(=O)N[C@@H](CCCNC(=N)N)C(=O)N[C@@H](C)C(=O)N[C@@H](CCCNC(=N)N)C(=O)N[C@@H](CC(=O)O)C(=O)N[C@@H](Cc1ccccc1)C(=O)N[C@H](C(=O)N[C@@H](C)C(=O)N[C@@H](Cc1c[nH]c2ccccc12)C(=O)N[C@@H](CC(C)C)C(=O)N[C@@H](CCC(=O)O)C(=O)N[C@@H](C)C(=O)NCC(=O)NCC(=O)O)C(C)C)C(=O)O	measured: Flatulence	humans CrCl 45 to 60 mL/min	subcutaneous, 100 µg single dose		treatment-related adverse events	0%
Cc1ccccc1C(=O)NN=Cc1ccc(O)c(Br)c1		normal C3H/HeN mouse, plasma	intraperitoneal, 1.6 mg/kg	baseline: intravenous 1.6 mg/kg	oral bioavailability F	90.6%
NC(=O)[C@H]1CCN(c2ncnc(N)c2F)C[C@@H]1N1CCC[C@@H](Nc2cc(Cl)cc(C(F)(F)F)c2)C1=O		B-cell malignancy patients	oral, 82 mg twice daily, dose		grade ≥3 leukocytosis	0%
N=C(N)NCCC[C@@H](NC(=O)[C@@H](N)Cc1ccccc1)C(=O)N[C@@H](Cc1ccccc1)C(=O)N[C@@H](CCCCN)C(N)=O	LC-MS	human, urine	subcutaneous, 15 mg, 5.833 h, median		fraction of dose excreted unchanged	35%
O=S(=O)(Nc1ccccc1)c1ccc(NC(=S)Nc2ccccc2)cc1	measured: RDW	female mouse, blood	oral, 5 mg/kg daily, 14 days		blood cell fraction	16.8%
CO[C@H]1C[C@@H]2CC[C@@H](C)[C@@](O)(O2)C(=O)C(=O)N2CCCC[C@H]2C(=O)O[C@H]([C@H](C)C[C@@H]2CC[C@@H](OC(=O)NCCOCCOCCOCCOCCOCCOCCOCCOCCC(=O)N3CCc4cc(Cn5nc(-c6ccc7oc(N)nc7c6)c6c(N)ncnc65)ccc4C3)[C@H](OC)C2)C[C@@H](O)[C@H](C)/C=C(\C)[C@@H](O)[C@@H](OC)C(=O)[C@H](C)C[C@H](C)/C=C/C=C/C=C/1C	dose-escalation trial	patients with advanced solid tumours	intravenous, 1.6 mg/3 mg weekly, grade ≥3		maculopapular rash TEAE incidence	0%
C[C@H]1C[C@@H](N2C(=N)N[C@](C)(c3cccc(NC(=O)c4cccc(C#N)c4)c3Cl)CC2=O)CCO1		rat	1000 mg/kg, every other day		neutrophils count change	20%
C[C@]1(CO)Cc2ncn(-c3ccc(C#N)c(Cl)c3)c2C(=O)O1	measured: involuntary muscle contractions	human	2 mg single dose		subjects with drug-related TEAE	0%
COc1cccc(Oc2ccccc2NC(=O)CNC(=O)c2cccc3ccccc23)c1		esterase-deficient SCID mice, male	oral, 40 mg/kg/day, 14 days, toxicity study		serum chloride	103 mmol/L and 109 mmol/L and 115 mmol/L
CC(=O)c1c(C)c2cnc(Nc3ccc(C4CCN(CCS(C)(=O)=O)CC4)cn3)nc2n(C2CCCC2)c1=O		human, dose-escalation trial, plasma	oral, 150 mg twice daily, day 21, multiple doses		clearance	961 mL/min
O=S(=O)([O-])C(F)(F)C(F)(F)C(F)(F)C(F)(F)C(F)(F)C(F)(F)C(F)(F)C(F)(F)F.[K+]		male C57BL/6J mice, EtOH-fed, plasma	dose not given	baseline: efavirenz and pair-fed	ALT level	increased
COc1ncccc1-c1cnn2ccc(N3CCN(C(=O)OC(C)C)CC3)nc12		rat, STZ model, plasma	oral, 30 mg/kg, 240 min		free drug concentration	423 nM
N#Cc1ccc(COc2cccc(C(=O)Nc3ccc4c(c3)B(O)OC4)c2)cc1	PAMPA	pre-coated trilayer membrane	200 µM, 5 h, pH 7.4, donor plate, PBS		donor concentration	170 ± 16.4 µM
C=CCNc1c(O)cc2c(O)c1C[C@@H](C)C[C@H](OC)[C@H](O)[C@@H](C)/C=C(\C)[C@H](OC(N)=O)[C@@H](OC)/C=C\C=C(/C)C(=O)N2	measured: nausea	unresectable or metastatic GIST/STS	intravenous, dose not given, all patients		patients with related AEs	43%
Cn1nccc1[C@]1(CNC(=O)c2ccc(F)c(F)c2-c2ccc(C(F)(F)F)cc2)NC(=O)NC1=O		mouse	intravenous, 0.3 mg/kg		dose-normalised AUC	1.5 kg·h/L
Cn1ncc(-c2nc(N[C@H]3CC[C@H](N)CC3)ncc2Cl)c1CC1CC1	phase I dose escalation	human patients	dose not given, any-grade TEAE	baseline: patients	acute respiratory failure incidence	3%

Structure (SMILES)	assay	test system	setting	how to read	quantity	value
CC(C)C[C@H](NC(=O)[C@H](CCCCN)NC(=O)OCC1c2ccccc2-c2ccccc21)C(=O)N[C@H](C(=O)N[C@@H](Cc1ccccc1)C(=O)N[C@@H](Cc1ccccc1)C(=O)N[C@@H](CCCCN)C(=O)NCC(=O)N[C@@H](Cc1ccccc1)C(=O)N[C@@H](C)C(=O)N[C@@H](Cc1c[nH]c2ccccc12)C(=O)N[C@@H](CC(N)=O)C(=O)N[C@H](C(=O)N[C@H]1CSSC[C@@H](C(=O)N[C@@H](Cc2c[nH]cn2)C(=O)N[C@@H](CCCNC(=N)N)C(=O)N[C@@H](CCCNC(=N)N)C(=O)N[C@@H](C)C(=O)N[C@@H](CC(N)=O)C(N)=O)NC(=O)[C@H](C(C)C)NC(=O)[C@H](CCCNC(=N)N)NC(=O)[C@H](C(C)C)NC(=O)CNC(=O)[C@H](CC(N)=O)NC(=O)[C@H](CCCNC(=N)N)NC(=O)[C@H](Cc2ccc(O)cc2)NC(=O)[C@H](C(C)C)NC1=O)C(C)C)C(C)C		ICR mice, serum	intraductal mammary, 10 mg/kg, day 5		blood urea nitrogen	10.3 ± 0.7 mmol/L
CC(C)n1c(C2CCNCC2)nc2c([N+](=O)[O-])c(Br)c(Br)cc21		patients with AML	125 mg, AST increased		AE leading to interruption	2%
COc1ccc2nc3cc(Cl)ccc3c(Nc3cc(CN4CCCC4)c(O)c(CN4CCCC4)c3)c2n1		mouse, blood	oral, 57 mg/kg		red cell distribution width (CV)	15.4%
CCc1ccc(CC/C=C/c2ccc3c(c2)C(=O)CC3)cc1		Sprague-Dawley rat, female	oral, 30 mg/kg/day, 14 days		TG	0.31 mM
O=C(O)CCCOc1ccc(F)cc1-c1cc(-c2ccccc2C(F)(F)F)n(-c2ccccc2)n1		Crl:CD(SD) rat, female	intravenous, 25 µg/kg, 14 days post-dose		albumin fraction of serum protein	52.6 ± 3.3%
CN1CCN(S(=O)(=O)c2cc([N+](=O)[O-])ccc2N(CCOS(C)(=O)=O)CCOS(C)(=O)=O)CC1		naive NOD/SCID mice, pooled blood	intraperitoneal, 25 mg/kg, week 4		ALT	32 U/L
O=C(Nc1ccccc1)C1CCN(C(=O)Oc2cccnc2)CC1	psychotropic effects VAS	healthy women	20 mg	baseline: pre-dose baseline, direction not given	change in High score	8.5
COc1cc2c(Oc3ccc4[nH]c(C)cc4c3F)ccnc2cc1OCC1(N)CC1		paediatric recurrent refractory sarcoma	12 mg		grade 1 or 2 Myalgia	0%
CC(C)(O)c1cc(Nc2cc(Oc3cn(C4CC4)nc3C3CCOCC3)ccn2)ccn1		grade 4 glioma expansion cohort	oral, 50 mg		headache, grade ≥3	5%
CC(C)CC(=O)OC[C@H]1O[C@@](C#N)(c2ccc3c(N)ncnn23)[C@H](O)[C@@H]1O		rat whole blood	5 µM, 60 min		remaining compound	0%
Cn1cc(-c2nc(N[C@@H]3CCCC[C@@H]3N)c(F)c3c2C(=O)NC3)cn1	measured: any bleeding	patients with relapsed or refractory AML	oral, 80 mg twice daily		hemorrhagic adverse events	100%
C[C@@H](NC(=O)N1C(=O)[C@H](Cc2ccnc(N)c2)[C@H]1C(=O)O)C1CCCCC1		healthy adult Chinese volunteers	continuous intravenous infusion, 2.25 mg/kg/h, 5-day infusion, CTCAE 5.0 grading		incidence of moderate AEs	0%
NCCCC[C@@H]1NC(=O)[C@@H](Cc2c[nH]c3ccccc23)NC(=O)[C@H](c2ccccc2)NC(=O)[C@@H]2C[C@@H](OC(=O)NCCN)CN2C(=O)[C@H](Cc2ccccc2)NC(=O)[C@H](Cc2ccc(OCc3ccccc3)cc2)NC1=O		healthy human volunteers	600 µg twice daily		subjects with injection-site pain	27%
[O-][S+]1CCc2nc(N3CCC(c4ncc(Cl)cn4)CC3)nc(NC3(CO)CCC3)c21 (stereo not drawn)	measured: gastrointestinal disorders	healthy male subjects	dose not given, multiple rising dose, total		subjects with adverse event	18.8%
CCCC(CCC)NC(=O)c1ccc2c(c1)OCO2		Swiss albino CD-1 mice, male, bone marrow	intraperitoneal, 700 mg/kg, 36 h		PCE/NCE ratio	0.9
C1=Cc2nc1cc1ccc([n-]1)c(C1CC1)c1nc(cc3ccc([n-]3)c2C2CC2)C=C1.CC(=O)[O-].[Mn+3]	LC-MS/MS	Sprague-Dawley rat, plasma	oral gavage, dose not given, 30 min		plasma concentration	98 ng/mL and 252 ng/mL
C[C@H]1COCCN1c1nc(NCc2cccnc2C(F)(F)F)c2cccnc2n1		conscious rat	intravenous, 10 mg/kg	baseline: control	QRS change	11.5%
CC1(C)[C@H](C=C(Cl)Cl)[C@H]1C(=O)OCc1cccc(Oc2ccccc2)c1	measured: CYP2B6	human, age 5 years, recombinant human CYP2B6	0.1 µM		enzyme contribution to clearance	0.05%
